Measurements gathered from unrelated publications.
Compare with care: the assays were run in different laboratories. ± gives the spread as reported. ≈ marks a conversion by molar mass, not a printed value.

| SMILES | assay | system | conditions | scale | quantity | result |
| --- | --- | --- | --- | --- | --- | --- |
| CC[C@H](C)[C@@H]1NC(=O)[C@H](Cc2ccc(O)cc2)NC(=O)[C@@H](N)CSSC[C@@H](C(=O)N2CCC[C@H]2C(=O)N[C@@H](CC(C)C)C(=O)NCC(N)=O)NC(=O)[C@H](CC(N)=O)NC(=O)[C@H](CCC(N)=O)NC1=O | microdialysis, radioimmunoassay | C57BL/6J male mice, wild type, hippocampus extracellular fluid | intraperitoneal, 12 µg total, incremental area over baseline |  | AUC above baseline | 134 ± 84 pg·30 min/sample |
| CCc1ccc(Cc2ccc3c(c2)[C@]2(OC3)O[C@H](CO)[C@@H](O)[C@H](O)[C@H]2O)cc1 |  | Wistar rat, male, small intestine | oral, dose not given, 1 h | reference: small intestine over plasma concentration | tissue/plasma ratio | 1360 ± 513 |
| CC(C)=CCC[C@](C)(O[C@@H]1O[C@H](CO)[C@@H](O)[C@H](O)[C@H]1O)[C@H]1CC[C@]2(C)[C@@H]1[C@H](O)C[C@@H]1[C@@]3(C)CC[C@H](O)C(C)(C)[C@@H]3[C@@H](O[C@@H]3O[C@H](CO)[C@@H](O)[C@H](O)[C@H]3O)C[C@]12C |  | rat, extracted plasma QC samples | 2.0 µg/mL, 24 h, 15 °C, autosampler |  | post-preparative stability accuracy | 94.8 ± 7.5% |
| N=C(N)c1ccc(OCCC(CCOc2ccc(C(=N)N)cc2)c2ccccc2)cc1 (centres unmarked) | haemolysis | sheep | 200 µg/mL, 20 h |  | haemolysis | > 10% |
| COc1cc(/C=C/C(=O)CC(=O)/C=C/c2ccc(O)c(OC)c2)ccc1O | I-125 label | C57BL/6J mouse, cerebellum | intranasal vs intraperitoneal, 10 µg/mouse IN, 100 µg/mouse IP, 12 h | reference: intranasal over intraperitoneal | brain uptake ratio | 8.48 |
| N=C(N)NC(=O)c1cnn(-c2cccc3ncccc23)c1C1CC1 |  | cynomolgus monkey male, hepatic S9 | 1 µM, pH 7.4, added: without NADPH |  | CLint | 55.3 ± 1.63 mL/min/kg |
| [2H]C([2H])([2H])Oc1cc2c(cc1OC([2H])([2H])[2H])C1CC(=O)C(CC(C)C)CN1CC2 (centres unmarked) | refers to: deuterated total (α+β)-HTBZ | healthy human volunteers, plasma | oral, 12 mg single dose, standard meal |  | dose-normalized AUC(0-inf) | 22.5 ng·h/mL |
| Cn1c(-c2ccc(C(N)=O)cc2F)nnc1C(C)(C)Oc1c(F)cc(Cl)cc1F |  | healthy young Japanese subjects, plasma | oral, 10 mg once daily, day 18, 14 days dosing |  | half-life mean | 24.2 h |
| CNC(=O)c1ccc(-c2cnc3ncc(Cc4ccc5ncccc5c4)n3n2)cc1F |  | human, normal hepatic function, plasma | oral, 200 mg single dose |  | Cmax (mean) | 1870 ng/mL |
| COc1cc(OC)c(/C=C/S(=O)(=O)Cc2ccc(OC)c(NCC(=O)O)c2)c(OC)c1 |  | cancer patients, phase I, plasma | oral, 700 mg twice daily, day 21 cycle 1 |  | Vss/F | 473 ± 138 L |
| CC(C)=CCC[C@](C)(O[C@@H]1O[C@H](CO)[C@@H](O)[C@H](O)[C@H]1O)[C@H]1CC[C@]2(C)[C@@H]1[C@H](O)C[C@@H]1[C@@]3(C)CC[C@H](O[C@@H]4O[C@H](CO)[C@@H](O)[C@H](O)[C@H]4O[C@@H]4O[C@H](CO)[C@@H](O)[C@H](O)[C@H]4O)C(C)(C)[C@@H]3CC[C@]12C |  | rat, extracted tissue homogenate QC samples | 0.5 µg/mL, 24 h, 15 °C, autosampler |  | post-preparative stability accuracy | 103 ± 7.7% |
| Cc1cccc(C)c1OCC(=O)N[C@@H](Cc1ccccc1)[C@@H](O)C[C@H](Cc1ccccc1)NC(=O)[C@H](C(C)C)N1CCCNC1=O | modified PAMPA Franz cell | phosphate buffer with HPMCAS | stock 12 mg/mL, 3 h, 25 °C, 454 nm particles, 300 rpm, added: 3% BSA receiver |  | particle permeability | 2.1 ± 0.1 ×10⁻⁶ cm/s |
| COc1cccc(N2CCN(C3=Nc4c(F)cccc4[C@H](CC(=O)O)N3c3cc(C(F)(F)F)ccc3OC)CC2)c1 | UHPLC-MS/MS | healthy women, plasma | intravenous infusion, 960 mg single dose, 60 min infusion, HPβCD formulation |  | terminal half-life | 12.9 ± 4.5 h |
| COc1cc2c(cc1OC)CN(CCc1ccc(NC(=O)c3cccc4c(=O)c5cccc(OC)c5[nH]c34)cc1)CC2 |  | Cremophor EL | 24 h, 37 °C |  | solubility | 4270 ± 310 µg/mL (≈ 7.58 mM) |
| CC(=O)NCCCC[C@H](NC(=O)[C@@H](NC(C)=O)C(C)C)C(=O)N[C@@H](CC(C)C)C(=O)NC(C)(C)C(=O)N[C@H](C(=O)N[C@@H](CCCCNC(C)=O)C(=O)N[C@@H](CC(C)C)C(N)=O)C(C)C | far-UV circular dichroism | trifluoroethanol | 100 µM, 25 °C |  | helicity | 53% |
| CC(=O)N[C@@H](CCCCN)C(=O)N[C@@H](CCCCN)C(=O)N[C@@H](CCCNC(=N)N)C(=O)N[C@@H](Cc1ccc(O)cc1)C(=O)N[C@@H](CO)C(=O)N[C@@H](CCCNC(=N)N)C(=O)N[C@@H](CCC(=O)O)C(=O)N[C@@H](CCC(N)=O)C(=O)N[C@@H](CC(C)C)C(=O)N[C@@H](CC(C)C)C(=O)NCC(=O)N[C@@H](CC(C)C)C(N)=O | CD spectroscopy | sodium phosphate buffer | 25 to 100 µM, pH 7.4, 25 °C |  | helicity | 2.2% |
| CC#CC(=O)N1CCC[C@H]1c1nc(-c2ccc(C(=O)Nc3ccccn3)cc2)c2c(N)nccn12 |  | moderate hepatic impairment (Child-Pugh B), plasma | oral, 50 mg single | reference: healthy subjects | AUC increase | 1.3 fold |
| O=C(CCCN1CCCN(c2ccc(Cl)cc2)CC1)c1ccc(F)cc1 |  | male Sprague-Dawley rats, plasma | intravenous, 1.7 mg/kg, added: HAL 0.7 mg/kg plus BCT 0.1 mg/kg |  | mean residence time | 0.674 ± 0.205 h |

| SMILES | assay | system | conditions | scale | quantity | result |
| --- | --- | --- | --- | --- | --- | --- |
| COC(=O)N[C@H](C(=O)N[C@@H](Cc1ccccc1)[C@@H](O)CN(Cc1ccc(-c2ccccn2)cc1)NC(=O)[C@@H](NC(=O)OC)C(C)(C)C)C(C)(C)C | population PK model | pregnant women, third trimester | oral, median, added: without tenofovir |  | Vd/F | 90 L |
| COc1cccc2c1C(=O)c1c(O)c3c(c(O)c1C2=O)C[C@@](O)(C(=O)CO)C[C@@H]3O[C@H]1C[C@H](N)[C@H](O)[C@H](C)O1 |  | mouse, E0771 tumour-bearing, heart | intravenous, 92 µmol/kg |  | terminal half-life | 34 h |
| Nc1ccn([C@@H]2O[C@H](CO)[C@@H](O)C2(F)F)c(=O)n1 |  | THU-treated rat plasma | 12.00 ng/mL, -80 to 20 °C, three freeze-thaw cycles, low QC |  | measured concentration | 10.6 ± 0.7 ng/mL |
| CC(C)[C@H](NC(=O)[C@@H]1CCCN1C(=O)[C@H](CCCNC(=N)N)NC(=O)[C@H](CS)NC(=O)[C@H](Cc1c[nH]c2ccccc12)NC(=O)[C@H](CCCNC(=N)N)NC(=O)[C@@H](Cc1ccccc1)NC(=O)[C@H](Cc1c[nH]cn1)NC(=O)[C@H](CCC(=O)O)NC(=O)[C@H](CS)NC(=O)[C@H](CS)NC(=O)[C@H](CCCCN)NC(=O)[C@@H]1CC(=O)N[C@@H](CCCNC(=N)N)C(=O)N[C@@H]([C@@H](C)O)C(=O)N[C@@H](CC(=O)O)C(=O)N[C@H](Cc2ccc(O)cc2)C(=O)N1)C(N)=O [technetium-99m labelled] |  | C57 mouse, female, B16/F1 melanoma, bone | intravenous, 2 h, added: NDP-MSH 10 µg co-injected |  | tissue uptake | 0.91 ± 0.59 %ID/g |
| CC(C)(Sc1ccncc1-c1ccc(C#N)c2ccccc12)C(=O)O |  | human, male, urine | oral, 10 mg, added: allopurinol 300 mg | reference: combination over alone | Ae(0-24) ratio | 101% |
| CCCC[C@@H]1NC(=O)[C@@H](NC(=O)[C@H](CCC(=O)O)NC(=O)CNC(=O)CN2CCN(CC(=O)O)CCN(CC(=O)O)CCN(CC(=O)O)CC2)CCCCNC(=O)C[C@@H](C(N)=O)NC(=O)[C@H](C(C)C)NC(=O)[C@@H]2CCCN2C(=O)[C@H](CCCNC(=N)N)NC(=O)CNC(=O)[C@H](Cc2c[nH]c3ccccc23)NC(=O)[C@H](CCCNC(=N)N)NC(=O)[C@@H](Cc2ccccc2)NC(=O)[C@H](Cc2c[nH]cn2)NC(=O)[C@H](CCC(=O)O)NC1=O [indium-111 labelled] |  | C57 mice, B16/F10 lung metastatic melanoma, brain | intravenous, 0.037 MBq, 4 h |  | tissue uptake | 0.01 ± 0.01 %ID/g |
| CN(C)C(=N)N=C(N)N |  | Sprague-Dawley rat, male, liver | oral, 100 mg/kg, 6 h, single low dose | direction not given | hepatocyte vacuolization score | 0 |
| CN[C@H](CC(C)C)C(=O)N[C@H]1C(=O)N[C@@H](CC(N)=O)C(=O)N[C@H]2C(=O)N[C@H]3C(=O)N[C@H](C(=O)N[C@H](C(=O)O)c4cc(O)cc(O)c4-c4cc3ccc4O)[C@H](O)c3ccc(c(Cl)c3)Oc3cc2cc(c3O[C@@H]2O[C@H](CO)[C@@H](O)[C@H](O)[C@H]2O[C@H]2C[C@](C)(N)[C@H](O)[C@H](C)O2)Oc2ccc(cc2Cl)[C@H]1O | microdialysis | pig, Danish Landrace, cortical bone | intravenous, 1000 mg over 100 min, 450 min dosing interval, added: 4.0 µg/mL MIC | reference: dosing interval | time above MIC | 7% |
| COc1ccc2cc3[n+](cc2c1OC)CCc1cc2c(cc1-3)OCO2 |  | rat plasma QC sample | 32 ng/mL nominal, 15 days, -80 °C, medium QC level storage stability |  | measured concentration | 30.2 ± 1.86 ng/mL |
| CCN(CC)CCNC(=O)c1c(C)[nH]c(/C=C2\C(=O)Nc3ccc(F)cc32)c1C |  | human, plasma | oral, 15 mg/m2, day 7 |  | minimum trough plasma concentration | 13.4 ng/mL |
| Cc1cc(Nc2cc3ncccc3c(N[C@@H]3C[C@H]4CC[C@@H](C3)N4CCC#N)n2)n[nH]1 |  | beagle dog, female, plasma | oral, 30 mg/kg/day, last day of 4 weeks |  | Cmax | 64.5 ng/mL |
| CS(=O)(=O)Nc1ccc(C(=O)O[C@@H](Cc2c(Cl)c[n+]([O-])cc2Cl)c2ccc(OC(F)F)c(OCC3CC3)c2)cc1OCC1CC1 |  | human, plasma | inhaled, 100 µg once daily, day 1, single-dose dry powder inhaler |  | Cmax | 0.0654 ng/mL |
| CCCCC1(CCCC)CN(c2ccccc2)c2cc(SC)c(OCC(=O)N[C@@H](C(=O)NCC(=O)O)c3ccccc3)cc2S(=O)(=O)C1 |  | human, plasma | oral, 15 mg once daily, day 1, geometric mean |  | AUC(0-t) | 1.75 ng·h/mL |
| CC(C)C[C@H](NC(=O)[C@H](CCCNC(=N)N)NC(=O)[C@H](CC(N)=O)NC(=O)[C@H](CC(=O)O)NC(=O)[C@H](CCCNC(=N)N)NC(=O)CNC(=O)CNC(=O)CNC(=S)Nc1ccc(C[C@H]2CN(CC(=O)O)CCN(CC(=O)O)CCN2CC(=O)O)cc1)C(=O)N[C@@H](CC(N)=O)C(=O)N[C@H](C(=O)NCC(=O)NCC(=O)N[C@H](C(=O)N[C@@H](Cc1ccc(O)cc1)C(=O)N[C@@H](Cc1ccccc1)C(=O)N[C@@H](CC(C)C)C(=O)N[C@H](C(=O)N[C@H](C(=O)N[C@@H](CCCNC(=N)N)C(=O)N[C@@H](CCC(N)=O)C(=O)O)[C@@H](C)O)[C@@H](C)O)[C@@H](C)O)C(C)C [fluorine-18 labelled] | reverse-phase HPLC |  |  |  | HPLC retention time | 13.2 min |
| COc1ccc(-c2oc3c(OC)c(OC)c(OC)c(OC)c3c(=O)c2OC)cc1OC |  | C57BL/6 mouse, male, small intestine | oral, 1% w/w in diet, 6 weeks, orange peel extract diet | reference: content in orange peel | tissue to peel content ratio | 4.29% |
| Cc1ccc(-c2ncc(Cl)cc2-c2ccc(S(C)(=O)=O)cc2)cn1 |  | hip replacement patients, plasma | oral, 120 mg at 0 h and 24 h |  | AUC(0-48 h) | 61000 ng·h/mL |
| CC(C)C[C@H](NC(=O)[C@H](CC(C)C)NC(=O)[C@@H](Cc1c[nH]c2ccccc12)NC(=O)[C@H](Cc1ccccc1)NC(=O)[C@@H](NC(=O)[C@@H](N)CCCCN)[C@H](c1ccccc1)c1c[nH]c2ccccc12)C(N)=O | RP-HPLC Jupiter Proteo |  | acetonitrile/water TFA gradient |  | HPLC retention | 55 %B |
